# Earlier results, collected from citations in different studies.
# Each numbered part shows a few of the values that one paper quotes.
# Chain of UniProt P21554 (whole entry, looked up): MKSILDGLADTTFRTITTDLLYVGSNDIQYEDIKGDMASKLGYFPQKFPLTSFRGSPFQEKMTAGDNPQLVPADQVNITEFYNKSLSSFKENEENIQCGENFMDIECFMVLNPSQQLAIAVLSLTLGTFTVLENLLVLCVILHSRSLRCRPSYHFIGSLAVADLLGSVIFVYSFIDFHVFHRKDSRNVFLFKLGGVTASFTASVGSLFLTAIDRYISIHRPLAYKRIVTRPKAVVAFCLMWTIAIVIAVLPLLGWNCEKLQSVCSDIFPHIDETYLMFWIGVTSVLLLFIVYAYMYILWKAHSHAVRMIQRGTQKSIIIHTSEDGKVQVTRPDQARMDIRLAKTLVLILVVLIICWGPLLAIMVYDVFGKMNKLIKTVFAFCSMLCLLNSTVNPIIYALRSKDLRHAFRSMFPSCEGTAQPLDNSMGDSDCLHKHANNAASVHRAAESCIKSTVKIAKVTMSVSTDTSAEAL

# Sample 1
# Organism: Cryptosporidium parvum
# Technique: high-throughput screen
# Tested at: concentration not given
SMILES,activity
C=CCN1CC[C@]23c4c5ccc(O)c4O[C@H]2C(=O)CC[C@@]3(O)[C@H]1C5,inactive
COc1ccc2[nH]cc(C3=CCNCC3)c2c1,inactive
CC(NC(C)(C)C)C(=O)c1cccc(Cl)c1 (centres unmarked),inactive
OC[C@H]1O[C@@H](n2cnc3c(N[C@H]4CCC[C@@H]4O)ncnc32)[C@H](O)[C@@H]1O,inactive
COc1cc2c(cc1OC)[C@@]13CCN4CC5=CCO[C@H]6CC(=O)N2[C@H]1[C@H]6[C@H]5C[C@H]43,inactive
NC1=NC(=O)C(c2ccccc2)O1 (centres unmarked),inactive
NC(=NCc1ccc(Cl)cc1)SCCCc1cnc[nH]1,inactive
NCCc1ccccn1,inactive
C[C@]12C/C(=C/O)C(=O)C[C@@H]1CC[C@@H]1[C@@H]2CC[C@@]2(C)[C@H]1CC[C@]2(C)O,inactive
c1ccc(Cn2ccnc2)cc1,inactive
CCC1(c2ccc(N)cc2)CCC(=O)NC1=O (centres unmarked),inactive
C[C@]12CCC(=O)C=C1CC[C@@H]1[C@@H]2CC[C@@]2(C)[C@H]1CC[C@]2(C)O,inactive
CCOC(=O)c1cncn1[C@H](C)c1ccccc1,inactive
CNC1=Nc2ccc(Cl)cc2C(c2ccccc2)=[N+]([O-])C1,inactive

# Other studies, line by line
# gag-pol protease: Gag-Pol polyprotein, protease (gag-pol, Human immunodeficiency virus type 1 group M subtype B, UniProt P04585)
SMILES,tested on,assay,system,setting,how to read,endpoint,result
OC(Cn1cncn1)(Cn1cncn1)c1ccc(F)cc1F,,,mouse,dose not given,,elimination half-life,5 h
O=C1N[C@@H]2CCCC[C@H]2N[C@H]1c1c[nH]c2ncccc12,MRC-5 fibroblasts,cytotoxicity,,,,IC50,> 100000 nM
O=C(NC1CCCCC1)c1cn(Cc2ccc(F)cc2)c2nc(Cl)ccc2c1=O,CB1 receptor,binding,,,,Ki,495 nM
N[C@@]1(c2ccccc2Cl)CCCCC1=O,,,mouse,"dose not given, together with: 1-ABT and ticlopidine",baseline: without CYP inhibitors,AUC(0-3h),increased
Nc1ccncc1,,,plasma,"concentration not given, total, literature data",,Cmax,0.198 µM
O=c1[nH]cc(F)c(=O)[nH]1,,,metastatic pancreatic cancer patients,dose not given,,median overall survival,4.41 months
N.N.O=C([O-])C1(C(=O)[O-])CCC1.[Pt+2],,,plasma,"concentration not given, total, literature data",,Cmax,10.4 µM
c1c[nH]cn1,,,,conjugate acid,,pKa,~7
CC(C)CN(C[C@@H](O)[C@H](Cc1ccccc1)NC(=O)O[C@H]1CO[C@H]2OCC[C@H]21)S(=O)(=O)c1ccc(C(=O)O)cc1,gag-pol protease,inhibitor,,,,Ki,0.0129 nM
O=C(NCCc1cccc(Cl)c1)Nc1ccc(Cl)cc1,"CNR1 (Homo sapiens, UniProt P21554)","calcium flux, antagonist",,,,IC50,30 nM
OCCN1CCN(CCC=C2c3ccccc3Sc3ccc(C(F)(F)F)cc32)CC1,MCF7,"microarray, Connectivity Map, item: LPIN1 mRNA",,"concentration not given, 6 h",baseline: DMSO,fold change,1.9
Nc1ccn([C@@H]2O[C@H](CO)[C@@H](O)C2(F)F)c(=O)n1,,,pancreatic cancer patients,dose not given,,median overall survival,3.82 months
CC(C)CN(C[C@@H](O)[C@H](Cc1ccccc1)NC(=O)O[C@H]1CO[C@H]2OCC[C@H]21)S(=O)(=O)c1ccc(C(N)=O)cc1,gag-pol protease,inhibitor,,,,Ki,0.0089 nM
COC[C@@H](NC(C)=O)C(=O)NCc1ccccc1,,,"human, plasma",oral,,therapeutic plasma concentration range,2 to 5 µg/mL
O=C(NN1CCCCC1)c1nn(-c2ccc(Cl)cc2Cl)c2c1CCc1cc(Cl)ccc1-2,CB1 receptor,binding,,,,Ki,14.8 nM

# For quick reference, copied from above (other studies, line by line):
SMILES,tested on,assay,system,setting,how to read,endpoint,result
c1c[nH]cn1,,,,conjugate acid,,pKa,~7
CC(C)CN(C[C@@H](O)[C@H](Cc1ccccc1)NC(=O)O[C@H]1CO[C@H]2OCC[C@H]21)S(=O)(=O)c1ccc(C(=O)O)cc1,gag-pol protease,inhibitor,,,,Ki,0.0129 nM
